Measurements of several laboratories.
Parts stem from different laboratories: compare values within a part only. Several values in a cell are separate wells, animals, samples, runs or records.
Sequence of UniProt P10721 (whole entry, unmodified, looked up): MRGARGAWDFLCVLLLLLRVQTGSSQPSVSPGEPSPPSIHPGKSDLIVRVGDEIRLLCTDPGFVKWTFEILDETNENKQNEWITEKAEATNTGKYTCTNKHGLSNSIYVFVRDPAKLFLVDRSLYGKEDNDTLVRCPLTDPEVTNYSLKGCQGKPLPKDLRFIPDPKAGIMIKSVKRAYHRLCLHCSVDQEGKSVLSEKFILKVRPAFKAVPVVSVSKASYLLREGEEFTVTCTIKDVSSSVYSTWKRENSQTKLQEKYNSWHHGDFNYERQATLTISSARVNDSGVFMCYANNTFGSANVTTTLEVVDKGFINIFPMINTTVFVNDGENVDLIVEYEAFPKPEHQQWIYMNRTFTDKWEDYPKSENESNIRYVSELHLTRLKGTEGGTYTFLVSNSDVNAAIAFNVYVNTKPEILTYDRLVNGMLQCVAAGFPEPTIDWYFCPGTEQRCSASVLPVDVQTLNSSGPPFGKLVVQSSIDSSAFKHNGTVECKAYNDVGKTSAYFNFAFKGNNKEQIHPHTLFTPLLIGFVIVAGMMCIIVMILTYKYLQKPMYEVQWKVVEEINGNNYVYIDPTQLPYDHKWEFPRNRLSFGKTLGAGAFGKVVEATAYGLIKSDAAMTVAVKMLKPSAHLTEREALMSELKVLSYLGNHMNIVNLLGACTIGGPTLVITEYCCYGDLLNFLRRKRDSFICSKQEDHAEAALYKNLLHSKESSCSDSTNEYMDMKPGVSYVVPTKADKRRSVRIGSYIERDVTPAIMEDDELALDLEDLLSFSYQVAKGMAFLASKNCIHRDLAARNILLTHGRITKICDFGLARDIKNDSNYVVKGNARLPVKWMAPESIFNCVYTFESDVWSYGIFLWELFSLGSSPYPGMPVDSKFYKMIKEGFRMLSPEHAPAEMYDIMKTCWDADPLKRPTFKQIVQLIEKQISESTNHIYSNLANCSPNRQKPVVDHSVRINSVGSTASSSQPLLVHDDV
Sequence of UniProt P42336 (whole entry, unmodified, looked up): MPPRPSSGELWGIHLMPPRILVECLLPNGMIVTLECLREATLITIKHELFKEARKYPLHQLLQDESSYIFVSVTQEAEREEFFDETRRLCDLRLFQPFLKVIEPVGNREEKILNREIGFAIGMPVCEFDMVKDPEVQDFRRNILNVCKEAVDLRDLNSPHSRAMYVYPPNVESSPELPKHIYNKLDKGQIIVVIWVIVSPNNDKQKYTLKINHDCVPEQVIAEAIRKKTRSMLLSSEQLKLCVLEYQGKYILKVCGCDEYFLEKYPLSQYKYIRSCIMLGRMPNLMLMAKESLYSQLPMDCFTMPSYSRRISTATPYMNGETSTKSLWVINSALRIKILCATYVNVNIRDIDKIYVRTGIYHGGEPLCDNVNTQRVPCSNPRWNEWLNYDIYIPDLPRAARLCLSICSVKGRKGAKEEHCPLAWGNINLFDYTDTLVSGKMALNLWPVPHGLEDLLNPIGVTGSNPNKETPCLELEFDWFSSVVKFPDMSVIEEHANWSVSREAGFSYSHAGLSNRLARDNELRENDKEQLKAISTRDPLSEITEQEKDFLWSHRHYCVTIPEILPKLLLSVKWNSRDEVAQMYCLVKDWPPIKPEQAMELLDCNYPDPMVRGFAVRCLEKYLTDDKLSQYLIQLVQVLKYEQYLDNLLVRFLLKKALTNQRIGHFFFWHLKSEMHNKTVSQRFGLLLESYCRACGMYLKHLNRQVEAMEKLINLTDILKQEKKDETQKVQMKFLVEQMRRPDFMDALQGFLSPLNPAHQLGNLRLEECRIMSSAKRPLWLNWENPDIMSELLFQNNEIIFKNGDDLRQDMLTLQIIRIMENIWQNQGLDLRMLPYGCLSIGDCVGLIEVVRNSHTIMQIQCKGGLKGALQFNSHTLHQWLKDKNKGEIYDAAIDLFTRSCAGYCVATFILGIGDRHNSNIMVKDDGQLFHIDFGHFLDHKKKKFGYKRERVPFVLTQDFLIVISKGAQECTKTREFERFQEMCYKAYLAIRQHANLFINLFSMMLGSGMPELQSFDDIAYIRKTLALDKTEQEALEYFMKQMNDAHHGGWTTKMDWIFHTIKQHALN
Sequence of UniProt Q7L7X3 (whole entry, looked up): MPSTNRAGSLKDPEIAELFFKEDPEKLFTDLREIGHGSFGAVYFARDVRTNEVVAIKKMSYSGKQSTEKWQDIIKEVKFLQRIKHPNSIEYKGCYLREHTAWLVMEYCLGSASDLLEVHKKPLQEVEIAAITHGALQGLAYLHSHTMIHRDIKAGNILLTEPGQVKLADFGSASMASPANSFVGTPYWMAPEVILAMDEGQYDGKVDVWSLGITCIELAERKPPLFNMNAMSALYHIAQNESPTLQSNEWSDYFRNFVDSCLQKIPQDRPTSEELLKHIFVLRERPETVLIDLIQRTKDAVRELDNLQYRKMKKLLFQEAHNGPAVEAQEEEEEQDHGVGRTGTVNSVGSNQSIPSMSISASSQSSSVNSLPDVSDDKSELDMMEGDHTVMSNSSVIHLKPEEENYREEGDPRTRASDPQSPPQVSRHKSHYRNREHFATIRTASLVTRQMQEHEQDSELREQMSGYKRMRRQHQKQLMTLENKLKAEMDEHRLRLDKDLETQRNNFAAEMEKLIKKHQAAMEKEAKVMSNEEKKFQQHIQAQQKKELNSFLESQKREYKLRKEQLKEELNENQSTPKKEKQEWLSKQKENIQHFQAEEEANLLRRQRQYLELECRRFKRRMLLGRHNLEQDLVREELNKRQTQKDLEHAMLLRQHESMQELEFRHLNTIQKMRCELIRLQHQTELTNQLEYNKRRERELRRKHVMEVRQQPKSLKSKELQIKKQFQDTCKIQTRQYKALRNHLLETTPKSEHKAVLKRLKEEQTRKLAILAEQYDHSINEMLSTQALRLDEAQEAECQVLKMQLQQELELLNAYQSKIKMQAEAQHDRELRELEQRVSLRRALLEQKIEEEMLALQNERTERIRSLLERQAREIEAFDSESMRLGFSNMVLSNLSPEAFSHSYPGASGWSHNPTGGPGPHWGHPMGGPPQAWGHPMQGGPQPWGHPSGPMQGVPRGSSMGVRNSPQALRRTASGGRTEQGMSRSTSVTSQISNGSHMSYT
Sequence of UniProt Q9Y4K4 (whole entry, looked up): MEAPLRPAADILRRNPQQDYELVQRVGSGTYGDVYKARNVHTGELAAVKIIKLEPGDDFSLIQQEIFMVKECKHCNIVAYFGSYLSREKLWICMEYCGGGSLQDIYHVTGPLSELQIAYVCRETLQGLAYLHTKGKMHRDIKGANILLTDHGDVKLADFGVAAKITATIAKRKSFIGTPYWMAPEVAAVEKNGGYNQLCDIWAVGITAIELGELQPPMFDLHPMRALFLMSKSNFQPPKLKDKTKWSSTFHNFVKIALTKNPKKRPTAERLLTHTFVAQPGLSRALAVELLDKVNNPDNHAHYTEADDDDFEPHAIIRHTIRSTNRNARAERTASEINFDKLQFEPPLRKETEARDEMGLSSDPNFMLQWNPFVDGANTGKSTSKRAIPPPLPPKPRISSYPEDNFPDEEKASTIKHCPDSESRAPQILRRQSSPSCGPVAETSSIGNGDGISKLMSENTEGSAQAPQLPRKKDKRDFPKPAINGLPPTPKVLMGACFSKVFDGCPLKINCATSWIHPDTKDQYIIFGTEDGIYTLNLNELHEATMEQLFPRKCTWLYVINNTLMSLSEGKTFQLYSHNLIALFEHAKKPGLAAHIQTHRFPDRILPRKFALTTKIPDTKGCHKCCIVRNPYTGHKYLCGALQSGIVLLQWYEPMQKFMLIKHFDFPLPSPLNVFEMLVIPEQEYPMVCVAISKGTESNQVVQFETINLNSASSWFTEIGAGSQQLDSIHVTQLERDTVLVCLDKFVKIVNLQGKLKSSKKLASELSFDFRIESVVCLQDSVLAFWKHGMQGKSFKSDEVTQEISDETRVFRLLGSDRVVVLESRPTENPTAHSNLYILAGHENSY
Sequence of UniProt P0C264 (whole entry, looked up): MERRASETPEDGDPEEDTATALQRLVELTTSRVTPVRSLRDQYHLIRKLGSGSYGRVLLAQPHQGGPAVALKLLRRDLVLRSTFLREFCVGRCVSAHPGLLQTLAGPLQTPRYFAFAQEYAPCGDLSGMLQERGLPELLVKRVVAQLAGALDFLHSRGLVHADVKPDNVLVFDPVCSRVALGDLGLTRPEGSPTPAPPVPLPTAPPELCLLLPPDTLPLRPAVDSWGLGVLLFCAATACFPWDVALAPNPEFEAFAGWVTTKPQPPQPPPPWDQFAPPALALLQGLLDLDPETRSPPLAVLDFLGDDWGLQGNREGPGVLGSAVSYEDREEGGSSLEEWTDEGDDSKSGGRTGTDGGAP

Sample 1 — organism: Cryptosporidium parvum; technique: time-kill; cells: HCT-8; strain: nanoluciferase-expressing; reference: DMSO control
Structure (SMILES): CN(C(=O)c1ccn2ncc(-c3ccc(C(N)=O)cc3)c2c1)c1ccc(C#N)cn1
It gave 42% and 35.8% for luminescence remaining (0.2469 µM, 24 h).
0.7407 µM, 4 h — luminescence remaining: 94.9% and 89%.
It gave 90.3% and 103% and 98% and 91.4% and 91.2% and 90.1% and 97.4% and 99.4% for luminescence remaining (0.02743 µM, 0 h).
0.2469 µM, 72 h — luminescence remaining: 9.97% and 10.3%.
It gave 76.6% and 71.3% for luminescence remaining (0.00305 µM, 48 h).
For 20 µM, 72 h: luminescence remaining read 10.8% and 11.2%.
0.2469 µM, 0 h — luminescence remaining: 103% and 91.2% and 91.4% and 90.3% and 99.4% and 97.4% and 90.1% and 98%.
The luminescence remaining was 94.4% and 70.9% (0.02743 µM, 72 h).
0.2469 µM, 4 h — luminescence remaining: 84.3% and 96%.
It gave 12.7% and 9.37% for luminescence remaining (6.667 µM, 48 h).

Sample 2 — observed: enzyme activity; action: inhibitor; concentration: 0.5 µM; reference: control
Target: Protein kinase C gamma type (PRKCG, Homo sapiens, UniProt P05129)
The remaining activity of `CCN(CC)CCCCN1c2ccccc2Oc2ccc(Cl)cc21` is reported as 91.1%.
The remaining activity of `N#C/C(=C(/N)SC1C=CC=CC1)c1cccc(C(O)c2ccncc2)c1` (stereo not drawn) is reported as 97.4%.
`O=C(c1ccccc1)c1ccc(N2CCOCC2)cc1O` gave a remaining activity of 95.6%.
For `C[C@@H](N)[C@H]1CC[C@H](C(=O)Nc2ccncc2)CC1`, the remaining activity was 117%.
`CC(C)n1cnc2c(Nc3cccc(Cl)c3)nc(NCCO)nc21` gave a remaining activity of 93.6%.
For `FC(F)(F)c1ccc(/C=C/c2nc(COc3ccc(CCCCn4ccnn4)cc3)co2)cc1`, the remaining activity was 95.2%.
For `CC(C)N(CCC(=O)c1ccc2ccccc2c1)Cc1ccccc1`, the remaining activity was 92.7%.
With `O=Nc1c(-c2c(O)[nH]c3ccccc23)[nH]c2ccccc12` the remaining activity was 96.7%.
`CCCCc1c(-c2ccc(O)cc2)[nH]c2nccnc12` gave a remaining activity of 95.1%.
With `O=C1c2ccccc2-c2nc3nnnn3nc21` the remaining activity was 59.3%.
`COc1cc2c(Nc3ccc(Br)cc3F)ncnc2cc1OCC1CCN(C)CC1` has a remaining activity of 93.2%.
`NC(=O)c1ccc(-c2nc(-c3ccc4c(c3)OCCO4)c(-c3ccccn3)[nH]2)cc1` has a remaining activity of 93.2%.
The remaining activity of `CC(C)(C)c1nc2c3cc[nH]c(=O)c3c3cc(F)ccc3c2[nH]1` is reported as 79.9%.
For `NC(=O)c1cccc(-c2cc(Nc3ccc(OC(F)(F)F)cc3)ncn2)c1`, the remaining activity was 83.6%.
With `COc1cc2c(N3CCN(C(=O)Nc4ccc(OC(C)C)cc4)CC3)ncnc2cc1OCCCN1CCCCC1` the remaining activity was 90.9%.
`Nc1nc(Nc2ccc(S(N)(=O)=O)cc2)nn1C(=S)Nc1c(F)cccc1F` gave a remaining activity of 93%.
`N#CC(c1ccnc(NCCc2cccnc2)n1)c1nc2ccccc2s1` (stereo not drawn) gave a remaining activity of 92.2%.
`O=C(O)/C=C/c1cc(Br)c(Br)c(Br)c1Br` gave a remaining activity of 89.4%.
For `Clc1ccc(Nc2nnc(Cc3ccncc3)c3ccccc23)cc1`, the remaining activity was 93.3%.
`O=C1NC(=O)/C(=C/c2ccc3c(c2)OC(F)(F)O3)S1` gave a remaining activity of 101%.
The remaining activity of `O=c1c(-c2ccc(F)cc2)c(-c2ccncc2)[nH]n1-c1ccc(Cl)cc1` is reported as 101%.
`CNc1cc2c(Nc3cccc(Br)c3)ncnc2cn1` has a remaining activity of 105%.
The remaining activity of `c1cc(-c2cnn3cc(-c4ccc(OCCN5CCCCC5)cc4)cnc23)ccn1` is reported as 89.6%.

Sample 3 — observed: cell-free assay; technique: competition with immobilised ligand; concentration: 1 µM
Compound: O=C(O)c1cc(-c2ccc(C3CCNCC3)cc2)c2ccc(-c3ccc(C(F)(F)F)cc3)cc2c1
TAOK1 (Homo sapiens, UniProt Q7L7X3) — remaining binding: 100%.
For STK4 (Homo sapiens, UniProt Q13043): remaining binding read 98%.
For Tyrosine-protein kinase ABL1, phosphorylated (ABL1, Homo sapiens, UniProt P00519, M351T): remaining binding read 100%.
For NTRK2 (Homo sapiens, UniProt Q16620): remaining binding read 100%.
The remaining binding was 100% (PIKFYVE (Homo sapiens, UniProt Q9Y2I7)).
MAP4K5 (Homo sapiens, UniProt Q9Y4K4) — remaining binding: 100%.
KIT (Homo sapiens, UniProt P10721, D816V) — remaining binding: 100%.
For PIK3CA (Homo sapiens, UniProt P42336, H1047Y): remaining binding read 84%.
It gave 72% for remaining binding (Tyrosine-protein kinase ABL1, non-phosphorylated (ABL1, Homo sapiens, UniProt P00519)).
For Tyrosine-protein kinase ABL1, phosphorylated (ABL1, Homo sapiens, UniProt P00519, Q252H): remaining binding read 90%.
It gave 100% for remaining binding (KIT (Homo sapiens, UniProt P10721, L576P)).
The remaining binding was 100% (MAP3K14 (Homo sapiens, UniProt Q99558)).
The remaining binding was 100% (Ribosomal protein S6 kinase alpha-3, N-terminal kinase domain (RPS6KA3, Homo sapiens, UniProt P51812)).
The remaining binding was 100% (PAK2 (Homo sapiens, UniProt Q13177)).
The remaining binding was 100% (LATS2 (Homo sapiens, UniProt Q9NRM7)).
The remaining binding was 62% (Tyrosine-protein kinase ABL1, non-phosphorylated (ABL1, Homo sapiens, UniProt P00519, H396P)).
For AKT1 (Homo sapiens, UniProt P31749): remaining binding read 99%.
The remaining binding was 93% (CDKL1 (Homo sapiens, UniProt Q00532)).
For KIT (Homo sapiens, UniProt P10721): remaining binding read 100%.
For CAMK2A (Homo sapiens, UniProt Q9UQM7): remaining binding read 100%.
SBK3 (Homo sapiens, UniProt P0C264) — remaining binding: 75%.
It gave 71% for remaining binding (SNRK (Homo sapiens, UniProt Q9NRH2)).
For MAP2K7 (Homo sapiens, UniProt O14733): remaining binding read 100%.
The remaining binding was 83% (STK38 (Homo sapiens, UniProt Q15208)).
For TNIK (Homo sapiens, UniProt Q9UKE5): remaining binding read 100%.

Sample 4 — observed: enzyme activity; action: inhibitor; concentration: 1 µM
SMILES: CC#CC(=O)N1CCC[C@H]1c1nc(-c2ccc(C(=O)Nc3ccccn3)cc2)c2c(N)nccn12
MAP2K1 (Homo sapiens, UniProt Q02750) — inhibition: 20%.
The inhibition was 15% (EPHB3 (Homo sapiens, UniProt P54753)).
The inhibition was 4% (INSRR (Homo sapiens, UniProt P14616)).
PI4KB (Homo sapiens, UniProt Q9UBF8) — inhibition: 0%.
TESK1 (Homo sapiens, UniProt Q15569) — inhibition: 15%.
The inhibition was 0% (CHUK (Homo sapiens, UniProt O15111)).
The inhibition was 9% (PRKCH (Homo sapiens, UniProt P24723)).
For EGFR (Homo sapiens, UniProt P00533, del747-750/T751S): inhibition read 3%.
It gave 34% for inhibition (ERBB3 (Homo sapiens, UniProt P21860)).
For TAOK1 (Homo sapiens, UniProt Q7L7X3): inhibition read 0%.
ALK (Homo sapiens, UniProt Q9UM73) — inhibition: 8%.
TLK2 (Homo sapiens, UniProt Q86UE8) — inhibition: 3%.
The inhibition was 0% (KIT (Homo sapiens, UniProt P10721, D816H)).
PIK3CA (Homo sapiens, UniProt P42336, E545A) — inhibition: 3%.
SIK2 (Homo sapiens, UniProt Q9H0K1) — inhibition: 0%.
It gave 0% for inhibition (MTOR (Homo sapiens, UniProt P42345)).
It gave 0% for inhibition (CAMKK2 (Homo sapiens, UniProt Q96RR4)).

Repeated from above (sample 2):
`COc1cc2c(Nc3ccc(Br)cc3F)ncnc2cc1OCC1CCN(C)CC1` has a remaining activity of 93.2%.
`NC(=O)c1ccc(-c2nc(-c3ccc4c(c3)OCCO4)c(-c3ccccn3)[nH]2)cc1` has a remaining activity of 93.2%.
The remaining activity of `CC(C)(C)c1nc2c3cc[nH]c(=O)c3c3cc(F)ccc3c2[nH]1` is reported as 79.9%.
For `NC(=O)c1cccc(-c2cc(Nc3ccc(OC(F)(F)F)cc3)ncn2)c1`, the remaining activity was 83.6%.
With `COc1cc2c(N3CCN(C(=O)Nc4ccc(OC(C)C)cc4)CC3)ncnc2cc1OCCCN1CCCCC1` the remaining activity was 90.9%.
`Nc1nc(Nc2ccc(S(N)(=O)=O)cc2)nn1C(=S)Nc1c(F)cccc1F` gave a remaining activity of 93%.
`N#CC(c1ccnc(NCCc2cccnc2)n1)c1nc2ccccc2s1` (stereo not drawn) gave a remaining activity of 92.2%.
`O=C(O)/C=C/c1cc(Br)c(Br)c(Br)c1Br` gave a remaining activity of 89.4%.
